Measurements pooled from the literature.
A part holds a random share of what one study measured.

Set 1
Target: RNA binding protein fox-1 homolog 2, RRM domain, GST-SBP tag (RBFOX2, Homo sapiens, UniProt O43251-10, residues 100-194)
Technique: RNA Bind-n-Seq
Form: RNA
Sample: in vitro
Concentration: 365 nM
Setting: natural RNA segment, single round, ends assumed
Relative to: no-protein control
Reading: higher = stronger binding
Constant ends, left off below: GGGAGUUCUACAGUCCGACGAUC … UGGAAUUCUCGGGUGCCAA
Residues (chain): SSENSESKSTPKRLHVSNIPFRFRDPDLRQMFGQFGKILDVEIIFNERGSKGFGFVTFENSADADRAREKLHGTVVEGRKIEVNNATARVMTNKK
| Sequence | RBNS enrichment (R) |
| --- | --- |
| CUAGAUGGAUGUUGAUGCACUGGAGGUCUUUUAGCCUGCCCUUGCAUGGCGCCUGCUGGAGGAGGAGAGAGCUCUGCUGGCAUGAGCCACAGUUUCUUGACUGGAGGCCA | 0.906 |
| GGCAACUUUGGGAAUUCUGGGAUCCCACUGUCUUGACAGGUUCCUAGACCGGAGCGCAUGCUGGCUAUUACUGAACACGGCCAUACUUGAGAAACAAAGUCUACUGUGUA | 3.33 |
| CUUUCUCAAAGAAAUAUUAAGCAUGUUUUGUUGCUCAGUGUUUUUGUGAAUUGCUUGGUUGUAAUUAAAUUCUGAGCCUGAUAUUGAUAUGGUUUUAAGAAGCAGUUGUA | 17.9 |
| GCAUAAGGGCUUUCAAAAAUUAAGUCUGUCCAGUAGAGUGAUUUUGCUUUCAUUAUUACCAAGUCAAGAGUACAACAGAGCUAGUGAACCGUAGCAGCAUGCGAAGCAGG | 4.08 |
| UGAGAAGAAGCACAAUUUUGAUUUUGAUGAGUCACUUUCUGUAAACAAUCUUGGUCUAUCUUUACCCUUAUACCUUAUCUGUAAUUUACCAUUUAUUGUAUUUGCAAAGC | 0.294 |
| AAAAGAUUGCUUGCUACGACUGCAUCAGCGUCUGCACCUGCGUAAGGAGGAAGCUCACUCACUCAAGAGCACCUCCAUGUACCGCGUCACACUGGAAGGAGGCUAAGUCU | 0.429 |
| CCCAGUAUGCUGUGUAUGCAGCAGGGACUCUUUUCCCCACAUGCCAGGAUGACUUGGAUCUGGGAAGGGCGUGUCAUCUCAGUUUGUUCCUCCCGCACCCCUCCUCCCCC | 0.423 |
| CCUAUGUCCCAGCUGUCAGGGGCUCAGGGAAUCCUACCCAGCCACCUGUCCUGGGAUGGAGUGUCAGCAUCCACCCCUUGGUUGUCAUCGAGGCCGCCCUCCCAGUCCUG | 0.482 |
| GCCAGACCUUAACCAAAGAUGCUGAGAUACAGCAUUCUGUCCCCCCUGCCCUAGAAACUCCAUAAAUGCUGUCACAACCCUAUCAUCGCUGAUGCUUUCUGCAUGUCAGC | 0.482 |
| UGCUUGUAUUCUCGGACCUGGACUCUGACAUGCAGAGAAGAGCUGACCGUCCUGGUGAGGACCACUGACUCAGAUAAUGCACUUUCCCCUCUGAUCCUGGACUCCCCAUG | 5.31 |
| GAAAAACAAAUGGCCUCAACUUGAUCUUACCUGAGUAACCAAGGCUGCUUUUGCUUUGGGUACAGCUAUUUAGUUAGUUGUGUUACAAAGAAUUAUUUUCUGAGAGAAUC | 0.346 |
| GUGUCCUACUCCAUUUACUGGUUACAAGGUGAUGUCAACAAGAGAAGCUAUCACAACACCAGGGCUGUGCACACGUGCACACACAUGUAUGCACAAGCACACAGAUGUAU | 0.349 |

Set 2
Target: Histone acetyltransferase KAT6A, winged helix 2, GST fusion (KAT6A, Homo sapiens, UniProt Q92794, residues 85-181)
Technique: protein binding microarray
Form: double-stranded DNA, one strand shown
Sample: in vitro
Concentration: not given
Setting: 8-mer, flanks averaged, mean of 2 arrays, mostly near background
Relative to: not given
Reading: higher = stronger binding
Target sequence (chain): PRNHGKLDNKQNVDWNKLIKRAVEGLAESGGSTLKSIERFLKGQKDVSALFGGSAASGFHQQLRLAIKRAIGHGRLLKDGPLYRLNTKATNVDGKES
| Sequence | E-score |
| --- | --- |
| AATGGCTA | -0.167 |
| ACTGCGCC | -0.0997 |
| AGCGGCGG | 0.288 |
| CCCTGCGG | 0.145 |
| ATGACAAA | -0.0164 |
| ACGAGCCC | 0.112 |
| CTGACTCC | -0.18 |
| GTCCGAAA | -0.0118 |
| AAGATAGT | -0.106 |
| CTATCTTC | -0.162 |
| GAGTGGTA | -0.106 |
| CTTGGCAA | -0.0108 |
| AAATTCTC | -0.0457 |
| GATACAGA | -0.00253 |
| GAGTACCC | -0.122 |
| CGGGCATA | -0.00222 |
| GCCCGCGC | 0.313 |
| AGGGTAAG | -0.0221 |
| ATATGTTC | -0.00384 |

Set 3
Target: RING finger protein unkempt homolog, zinc fingers 1-6, GST-SBP tag (UNK, Homo sapiens, UniProt Q9C0B0, residues 30-357)
UniProt Q9C0B0, sequence (30-357, looked up): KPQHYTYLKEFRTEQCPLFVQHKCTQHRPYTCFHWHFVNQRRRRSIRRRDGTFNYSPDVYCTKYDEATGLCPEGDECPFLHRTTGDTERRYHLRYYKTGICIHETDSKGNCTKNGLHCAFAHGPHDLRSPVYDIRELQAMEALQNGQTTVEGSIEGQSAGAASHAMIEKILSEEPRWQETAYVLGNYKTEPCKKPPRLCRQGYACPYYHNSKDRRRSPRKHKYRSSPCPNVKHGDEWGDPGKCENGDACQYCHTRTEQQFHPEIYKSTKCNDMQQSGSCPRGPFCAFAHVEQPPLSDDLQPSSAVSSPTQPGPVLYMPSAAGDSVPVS
Technique: RNA Bind-n-Seq
Form: RNA
Sample: in vitro
Concentration: not given
Setting: RNA with constant flanks, human and mouse sites, ends assumed
Relative to: input RNA pool
Reading: higher = stronger binding
Constant ends, left off below: GGGAGUUCUACAGUCCGACGAUC … CAACAGAGGAUUGAGCAUCA
| Sequence | bound/input enrichment [ratio] |
| --- | --- |
| AGCAUCGUGGUCCUAAUGUGAAGGUUUUACAGGCUCUCUGAAUGGCUGUGAGAAAGCCCAAAGAGAUUGAGUCAUUGUGUAGGAAGCUGCAGAGGAAAGCUUACACUAGCCCUUAAUUAA | 0.245 |
| CCAGACGACGGACUCACAGCACAGCAGCUCUUCAACUGCGGAGACGGCCUCACCUACAAUGACUUUCUCAUUCUCCCUGGGUACAUCGACUUCACUGCAGACCAGGUGGACCUGACUUCU | 0.178 |
| GUCUCCUUUUUUGGCCCUAGGCUGGUUAGGAACCUGUACACCUUCACUCUCUCAUCAUUAAAUAGUGGCCUUUUUCAGUAUUUCCUCUCUCCCCUCUAUAAGUUGCUGAAAUCACAAAGC | 1.38 |
| AAGGAUUGUAAAUCCUAUAGUGUGGGUGUAGCAUAUAAAACUUUAGGAAAAUUUGAUCAGUUAGGAAAGACAAAUACUAGUUGGUGCGUUCACGUCAACAGCUGGUUACAGAACACAUUU | 64.7 |
| CCCUGUUUAUUGGCUGGAGGUUUAUUAACAUAUAAGUCUCCUGCUACCUCACCCAUUAGUAGUAAUUCUCACAGGUCACUGGAUGGUUUAAGCAGAACUCAGGGCGAAAGUAUAUCAGAA | 0.522 |
| ACAUCAUCAGUUUUUCGAUUAGUUUCUAGACCCAAACCAUUAUCAGCAGUUCCAAAGCAAGUUGUAACAGGAACUGUGUUGACAAGAUCUGUUUUCAUCAACAAUGUGUUAUCUAAAAUU | 1.19 |
| UGUUACCAAAAUCACUCUAGAGUCUUUUCUCGCGUGGAAGAAGAGGAAAAGACAAGAAAAGAUUGAUAAACUUGAACAAGAUAUGGAGAGGCGGAAAGCUGACUUCAAAGCAGGGAAAGC | 0.343 |
| UGUCAGGUGGCUUAUUUGUGGAUGCCAUGAUUGAUGAUGUUCAUUUUAAGCUCUUACCUAUAGUACAAGUACAUGAUGCUACUGAAUAUUUUUCCACUUGGAAACUGUGAGCUGGUUGUU | 0.399 |
| CUAUACCUGAAACUCACAUUUGACCUCAUAGAGAAAGGCUACCUAGUGCUAAAGAGUUCUAGCUACAAAGUCGUUCCUGUUUCGCUCUCUGAGGUUUAUUUACUCCAGUGCAAUAUGAAG | 0.236 |
| AAAAUUCGACUAAAACCAGAAACUCCUCGAAGUGAAACUUGUAUUUCUAAUGACUUUUAUUCUCAUAUGCCUGUUGGAGAGACUAAUCCUUUGAUAGGCUCUUUACUCCAGGAGCGGCAA | 0.414 |
| GACCACAAUGCCCCCAUUGAGAAAUAUGACAUUGAAUUUGAGGACAAGGAAAUGGCGCCUGAAAAAUGGUACAGUCUGGGCAAGGUUCCAGGGAACCAGACCUCUACCACCCUCAAGCUG | 0.196 |

Set 4
Target: Ras GTPase-activating protein-binding protein 1, full length (G3BP1, Homo sapiens, UniProt Q13283)
UniProt Q13283, sequence (whole entry, looked up): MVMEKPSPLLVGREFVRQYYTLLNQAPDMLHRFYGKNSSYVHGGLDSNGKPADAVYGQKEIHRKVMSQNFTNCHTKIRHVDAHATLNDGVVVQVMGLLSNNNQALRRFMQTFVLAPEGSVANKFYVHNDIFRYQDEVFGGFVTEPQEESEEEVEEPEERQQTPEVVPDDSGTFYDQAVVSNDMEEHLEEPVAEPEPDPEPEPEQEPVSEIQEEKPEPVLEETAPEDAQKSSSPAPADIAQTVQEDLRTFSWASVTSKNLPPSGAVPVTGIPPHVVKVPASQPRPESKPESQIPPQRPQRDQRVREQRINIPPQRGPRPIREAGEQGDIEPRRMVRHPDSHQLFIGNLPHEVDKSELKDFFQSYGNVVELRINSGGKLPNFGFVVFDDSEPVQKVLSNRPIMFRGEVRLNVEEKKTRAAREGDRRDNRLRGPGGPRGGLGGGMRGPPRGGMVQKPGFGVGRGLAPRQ
Technique: RNA Bind-n-Seq
Form: RNA
Sample: in vitro
Concentration: 200 nM
Setting: whole 134-nt RNA, ends assumed
With: 150 mM KCl
Relative to: input library
Reading: higher = stronger binding
Constant ends, left off below: GGGAGUUCUACAGUCCGACGAUC … UGGAAUUCUCGGGUGUCAAGG
| Sequence | log2 enrichment |
| --- | --- |
| AGUCCUGUGCUACACAUCGUAUGUACCGAAUCGUGUGUGUGUGUGUGUGUGUGUGUGAAAGUAUUAUGUUACGCCGUUCGGAUCUGCACU | 0.676 |
| CAAGUCCUGUGCUACACAUCGUAUGUACCGAAUCGGGUUUGGGGUUUGGGUUUGGAAAGUAUUAUGUUACGCCGUUCGGAUCUGCACUUC | -0.188 |
| AGUCCUGUGCUACACAUCGUAUGUACCGAAUCGGAAAAAAAGGAAAGGUUUUUUUGGAAAGUAUUAUGUUACGCCGUUCGGAUCUGCACU | -1.74 |
| UUUUCAAAAUAAGGAGCUUCCCAGACCUGUGUUAGAAGGGCAGCAGUCAGAGAGGACCCCAAAUAAUCGCCCUGAUGCCCCUAAGGAGAA | -0.43 |
| CCUCAAGUCCUGUGCUACACAUCGUAUGUACCGAAUCGGGUUGGUUGGUUGGGAAAGUAUUAUGUUACGCCGUUCGGAUCUGCACUUCCA | -0.28 |
| ACCAUGCAGGUGGGCAUCUUUGGGAAGUGGGGCAAGGGGGGGAUAGGGGGGGGGGUAACACUUUGGGAACAGGUGGUCCCAGGUCGUUUC | 1.24 |
| UCAAGUCCUGUGCUACACAUCGUAUGUACCGAAUCGGCCCGGGGCCCGGCCCGGAAAGUAUUAUGUUACGCCGUUCGGAUCUGCACUUCC | -0.608 |
| UGGGAGGUGGAUUUUGUUUAUUUUUUUAGCUCAUUUCCAGGGUUGGGAAUUUUUUUUUAAUAUGUGUCAUGAAUAAAGUUGUUUUUGAAA | -0.511 |
| UCCUGUGCUACACAUCGUAUGUACCGAAUCAAAGUGUGUGUGUGUGUGUGUGUGUGUAAAAAAGUAUUAUGUUACGCCGUUCGGAUCUGC | 0.894 |
| GCAGGAAGUAAAAACAAAUGGAAAUGCUUCGGAUAGUGGCAGGGGCGGGGGUUGCUAAGGAAAGGGUGGGAUGGGAGUGGGUAAAGAGUU | 1.2 |
| CCUGUGCUACACAUCGUAUGUACCGAAUCGGGGAGGGGUUUUUUUGGGGAAAAAAAGGGGAAAGUAUUAUGUUACGCCGUUCGGAUCUGC | -0.048 |
| GCAGGAAGUAAAAACAAAUGGAAAUGCUUCGGAUAGUGGCAGGGGUGGGGGUUGCUAAGGAAAGGGUGGGAUGGGAGUAGGUAAAGAGUU | 0.704 |
| CUCAAGUCCUGUGCUACACAUCGUAUGUACCGAAUCGGUUGGGUUGGUUGGGGAAAGUAUUAUGUUACGCCGUUCGGAUCUGCACUUCCA | 0.0773 |
| UAACUUUAGAGGAGGAUCUGAUGGAUAUGGCAGUGGACGUGGAUUUGGGGAUGGCUAUAAUGGGUAUGGAGGAGGACCUGGAGGUGCCAA | 0.0813 |

For quick reference, copied from above (set 4):
| Sequence | log2 enrichment |
| --- | --- |
| CAAGUCCUGUGCUACACAUCGUAUGUACCGAAUCGGGUUUGGGGUUUGGGUUUGGAAAGUAUUAUGUUACGCCGUUCGGAUCUGCACUUC | -0.188 |
| AGUCCUGUGCUACACAUCGUAUGUACCGAAUCGGAAAAAAAGGAAAGGUUUUUUUGGAAAGUAUUAUGUUACGCCGUUCGGAUCUGCACU | -1.74 |
| UUUUCAAAAUAAGGAGCUUCCCAGACCUGUGUUAGAAGGGCAGCAGUCAGAGAGGACCCCAAAUAAUCGCCCUGAUGCCCCUAAGGAGAA | -0.43 |
